Measured values pooled from the literature.
Each numbered part is a random draw from the data of one study; scales do not carry over between parts.

Series 1
Target: Sal-like protein 4, full length isoform A (SALL4, Homo sapiens, UniProt Q9UJQ4, residues 1-1053)
Sequence of UniProt Q9UJQ4 (whole entry, looked up): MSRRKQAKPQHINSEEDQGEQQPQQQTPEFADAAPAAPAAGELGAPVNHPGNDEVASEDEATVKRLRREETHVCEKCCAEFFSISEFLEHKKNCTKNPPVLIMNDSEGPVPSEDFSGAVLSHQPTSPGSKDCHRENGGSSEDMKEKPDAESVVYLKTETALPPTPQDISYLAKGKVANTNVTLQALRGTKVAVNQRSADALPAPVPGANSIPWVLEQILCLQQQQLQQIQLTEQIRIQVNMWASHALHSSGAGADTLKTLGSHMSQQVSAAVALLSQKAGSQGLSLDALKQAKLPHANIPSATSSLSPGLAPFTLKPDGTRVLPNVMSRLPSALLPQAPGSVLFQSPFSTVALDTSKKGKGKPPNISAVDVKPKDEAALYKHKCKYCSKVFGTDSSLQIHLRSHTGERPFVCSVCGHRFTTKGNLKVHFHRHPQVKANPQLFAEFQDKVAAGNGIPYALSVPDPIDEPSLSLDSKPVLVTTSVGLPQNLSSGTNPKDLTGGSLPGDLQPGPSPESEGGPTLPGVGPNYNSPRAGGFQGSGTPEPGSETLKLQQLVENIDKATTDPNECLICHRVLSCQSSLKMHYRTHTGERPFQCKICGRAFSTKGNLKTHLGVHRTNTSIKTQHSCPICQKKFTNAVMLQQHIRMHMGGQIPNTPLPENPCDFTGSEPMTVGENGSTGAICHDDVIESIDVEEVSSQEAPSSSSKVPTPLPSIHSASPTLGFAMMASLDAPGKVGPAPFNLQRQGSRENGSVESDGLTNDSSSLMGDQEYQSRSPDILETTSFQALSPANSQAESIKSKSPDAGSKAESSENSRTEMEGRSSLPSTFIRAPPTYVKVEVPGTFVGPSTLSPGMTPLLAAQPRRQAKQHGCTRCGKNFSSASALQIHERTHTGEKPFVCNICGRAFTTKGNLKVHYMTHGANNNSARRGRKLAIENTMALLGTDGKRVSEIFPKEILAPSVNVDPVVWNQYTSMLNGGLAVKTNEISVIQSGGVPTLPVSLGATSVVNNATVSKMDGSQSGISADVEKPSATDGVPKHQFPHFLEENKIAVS
Method: universal PBM
Form: double-stranded DNA, one strand shown
Sample: in vitro
Tested at: 600 nM
Setting: 8-mer, flanks averaged, mean of replicates
Direction: higher = stronger binding
Endpoint: E-score
CAAGAGCA: 0.0241
GAGCCTTA: -0.108
AGTTCGAA: 0.0772
GCGATAGA: -0.0906
AAGATGCT: 0.0115
CACTGCTC: -0.0907
CTCGCTTC: -0.21
GCGTAAGA: 0.0153
GAAAAGTA: 0.219
AATTAATC: 0.289
CGAGTGAG: -0.215
CTCTCTAA: -0.0821
CCTGAAGA: -0.148
CCACACCG: -0.253
CCTTTTCA: 0.116
TAGCCGGA: -0.243
CCTCGCCG: -0.344
CCACCCTC: -0.175
ACGCAAGT: -0.0992
AGCCTTCA: -0.039
GAGAACCC: -0.233
ACCTTCTC: -0.0686
AACCTGCC: -0.239
ATTGCTAG: 0.152

Series 2
Target: Interferon regulatory factor 7, full length, phosphomimetic (IRF7, Homo sapiens, UniProt Q92985, residues 1-503, S101K/S471D/S472D/S475D/S476D/S477D/S483D/S484D/S487D)
Method: protein-binding microarray
Form: double-stranded DNA, one strand shown
Sample: in vitro
Tested at: 250 nM
Setting: 60-bp whole probe
Added: salmon DNA 0.4 mg/ml
Baseline: random background probes
Direction: higher = stronger binding
Endpoint: log fluorescence
Shared flanks, not repeated: GCCTAGCAC … GTCTTGATTCGCTTGACGCTGCTG
Residues (chain): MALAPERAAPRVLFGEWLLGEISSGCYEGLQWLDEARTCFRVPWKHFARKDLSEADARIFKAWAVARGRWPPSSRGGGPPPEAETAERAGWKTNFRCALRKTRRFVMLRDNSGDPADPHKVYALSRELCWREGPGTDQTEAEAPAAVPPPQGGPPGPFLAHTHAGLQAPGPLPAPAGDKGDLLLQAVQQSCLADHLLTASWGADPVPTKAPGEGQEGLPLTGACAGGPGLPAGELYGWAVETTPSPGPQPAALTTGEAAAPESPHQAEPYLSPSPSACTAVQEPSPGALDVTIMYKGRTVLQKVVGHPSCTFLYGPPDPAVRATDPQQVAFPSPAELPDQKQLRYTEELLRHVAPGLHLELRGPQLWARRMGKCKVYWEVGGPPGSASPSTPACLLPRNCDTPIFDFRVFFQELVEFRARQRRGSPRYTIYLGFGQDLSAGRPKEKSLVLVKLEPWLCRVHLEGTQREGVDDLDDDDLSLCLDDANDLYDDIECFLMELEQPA
GACGATCTCAGCATCGAGACGTGCTAG: -0.149 z-score
TAATATATATATTGTTAGTGTGTGCTA: 0.378 z-score
TTAGGACTGCGACTGCTTTAGTGCTAG: -0.154 z-score
TAAGGTATCGGGACTGGGTTAGTGCTA: 0.257 z-score
CTAGGTATCCTTATCCTTTAGTGCTAG: 0.899 z-score
TCATCTCTTATTCTAACACTGTGCTAG: 0.978 z-score
TCATATCACTATTCTAGGACTGTGCTA: 0.691 z-score
GACGGTTTCCTTCTCCAGACGTGCTAG: 2.63 z-score
TTAGGTCTCCTTATCGTTTAGTGCTAG: 0.499 z-score
TCATATTTAAGGCCTATGACTGTGCTA: 0.561 z-score
CTCCTTCTCTAACCTCTCTAAGTGCTA: 0.709 z-score
GAGGGTATCGGTTTCGGGACGTGCTAG: 5.85 z-score
GACGGAATCGGGACTGGGGACGTGCTA: -0.00636 z-score
TTAGATATCGGGTCTCGATTAGTGCTA: 0.864 z-score
GACGGTATCGCGTATCGGGACGTGCTA: 0.0869 z-score
GACGGACTGGGGAATGGGGACGTGCTA: -0.418 z-score
AACGGTTTCCTTTTCCTGACGTGCTAG: 7.1 z-score
GACGGACTGGGGTATCCGGACGTGCTA: -0.746 z-score
AGTGTTATAATATTATTGCAGTGCTAG: -0.115 z-score
TTAGCTCTCGGTTTCGGTTAGTGCTAG: 7.85 z-score
GTCGATTTCGGGTATCGAGACGTGCTA: 1.66 z-score
TTAGGTCTGGGGTATCGGTTAGTGCTA: 0.27 z-score
GACGGTATCGGTTTCTGGACGTGCTAG: 5.61 z-score
TCATCTATGTAGTTGATACTGTGCTAG: 0.164 z-score
TTCGGTTTCGGTATCGGTTAGTGCTAG: 10.9 z-score

Series 3
Target: Fragile X messenger ribonucleoprotein 1, C-terminal low-complexity region (Fmr1, Mus musculus, UniProt P35922)
Method: RNA Bind-n-Seq
Form: RNA
Sample: in vitro
Tested at: 200 nM
Setting: whole 134-nt RNA, ends assumed
Added: 150 mM KCl
Baseline: input library
Direction: higher = stronger binding
Endpoint: log2 enrichment
Shared flanks, not repeated: GGGAGUUCUACAGUCCGACGAUC … UGGAAUUCUCGGGUGUCAAGG
CAAGUCCUGUGCUACACAUCGUAUGUACCGAAUCGGCCCCGGCCCCGGCCCCGGGAAAGUAUUAUGUUACGCCGUUCGGAUCUGCACUUC: -0.429
AGUCCUGUGCUACACAUCGUAUGUACCGAAUCGGGAAAAAGGGAGGGAAAAAAAGGGAAAGUAUUAUGUUACGCCGUUCGGAUCUGCACU: 0.2
GUCCUGUGCUACACAUCGUAUGUACCGAAUCGGGGAAAGGGGUUUUUUUGGGGUGGGGAAAGUAUUAUGUUACGCCGUUCGGAUCUGCAC: 0.553
GCAGGAAGUAAAAACAAAUGGAAAUGUUUCGGAUAGUGGCAGGGGUGGGGGUUGCUAAGGAAAGGGUGGGAUGGGAGUGGGUAAAGAGUU: 0.459
ACCAUGCAGGUGGGCAUCUUUGGGAAGUGGGGCAAGGGGGGGAUAGGAAAGGGGGUAACACUUUGGGAACAGGUGGUCCCAGGUCGUUUC: 0.577
UCAAGUCCUGUGCUACACAUCGUAUGUACCGAAUCGGUUUGGUUUGGAAAAAGGAAAGUAUUAUGUUACGCCGUUCGGAUCUGCACUUCC: -0.526
UGGCCCUGGUGGCAUGCGGGGAGGAAGAGGUGGCCUUAUGGAUCGUGGUGGUCCCGGUGGAAUGUUCAGAGGUGGCCGUGGUGGAGACAG: 0.268
UCCUGUGCUACACAUCGUAUGUACCGAAUCGGGGUUUUUGGGGAGGGGUUUUUUUGGGGAAAGUAUUAUGUUACGCCGUUCGGAUCUGCA: 0.725
AGUCCUGUGCUACACAUCGUAUGUACCGAAUCGGGUUUUUGGGAGGGUUUUUUUGGGAAAGUAUUAUGUUACGCCGUUCGGAUCUGCACU: 0.403
GUCCUGUGCUACACAUCGUAUGUACCGAAUCGGGAAAGGGAAAAAGGGAAAAAAAGGGAAAGUAUUAUGUUACGCCGUUCGGAUCUGCAC: -0.507
AAGUCCUGUGCUACACAUCGUAUGUACCGAAUCGGAAAAAGGUUUUUGGUUUUUGGAAAGUAUUAUGUUACGCCGUUCGGAUCUGCACUU: -1.17
UGUGCUACACAUCGUAUGUACCGAAUCGGGCCCCCCCGGGCCCCCCCGGGGCCCCCCCGGGGAAAGUAUUAUGUUACGCCGUUCGGAUCU: -1.54
AUUUGUACACAGACAGGGAAACUGGCAAGCUGAAGGGAGAGGCAACGGUCUCUUUUGAUGACCCACCUUCAGCUAAAGCAGCUAUUGACU: -0.0132
GUCCUGUGCUACACAUCGUAUGUACCGAAUCGGGGAAAAGGGGAAAAGGGGAAAAGGGAAAGUAUUAUGUUACGCCGUUCGGAUCUGCAC: 0.251

Series 4
Target: Prothrombin, mature alpha-thrombin (F2, Homo sapiens, UniProt P00734)
Method: aptamer microarray, sandwich
Form: DNA with 2'F-ANA
Sample: in vitro
Tested at: 200 nM
Setting: whole 15-mer aptamer, many near background
Added: Cy3 exosite-II aptamer, 400 nM
Direction: higher = stronger binding
Endpoint: mean fluorescence intensity
Oligonucleotide: GGTTGGTGTGGTTGG
2'F-ANA at 4 7 8 11 13: 267 a.u.
2'F-ANA at 1 2 3 5 11: 50.8 a.u.
2'F-ANA at 4 7 8 9 12 14: 140 a.u.
2'F-ANA at 4 6 15: 277 a.u.
2'F-ANA at 1 2 3 5 6 7 9 10 12: 52.1 a.u.
2'F-ANA at 4 6 9 10 13 15: 68.3 a.u.
2'F-ANA at 2 6 7 8 11 13: 427 a.u.
2'F-ANA at 1 6 7 10 15: 68.8 a.u.
2'F-ANA at 1 2 3 8 12 13 14: 105 a.u.
2'F-ANA at 3 4 7 8 9 11: 753 a.u.
2'F-ANA at 1 7 9 13 15: 139 a.u.
2'F-ANA at 3 8 9 12 14 15: 718 a.u.
2'F-ANA at 1 2 6 8 10 11 13 14: 47.1 a.u.
2'F-ANA at 4 5 8 11 13: 53.1 a.u.
2'F-ANA at 4 7 9 10 12 13: 93.9 a.u.
2'F-ANA at 1 3 6 8 9 10 12 13 14: 139 a.u.
2'F-ANA at 1 2 4 5 6 9 13 15: 52 a.u.
2'F-ANA at 2 3 6 8 9 10 13 15: 252 a.u.
2'F-ANA at 1 3 5 8 11 14 15: 71.3 a.u.
2'F-ANA at 2 3 4 5 10 14: 82.4 a.u.
2'F-ANA at 4 5 6 8 9 10 11 12 13 14: 51.6 a.u.
2'F-ANA at 1 6 9 12: 355 a.u.
2'F-ANA at 2 6 10 11 12 13 15: 140 a.u.
2'F-ANA at 2 4 5 6 7 8 9 12 15: 155 a.u.
2'F-ANA at 3 5 6 14 15: 50.3 a.u.

Series 5
Target: Histone acetyltransferase KAT6A, winged helix 2, GST fusion (KAT6A, Homo sapiens, UniProt Q92794, residues 85-181)
Method: protein binding microarray
Form: double-stranded DNA, one strand shown
Sample: in vitro
Tested at: not given
Setting: 8-mer, flanks averaged, mean of 2 arrays, mostly near background
Baseline: not given
Direction: higher = stronger binding
Endpoint: E-score
Residues (chain): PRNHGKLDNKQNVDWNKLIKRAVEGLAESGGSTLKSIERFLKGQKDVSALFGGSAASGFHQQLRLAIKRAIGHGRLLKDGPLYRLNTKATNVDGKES
CCACCTCG: -0.0107
CATCGACC: 0.0498
CACACGCG: 0.0611
GAACCGGC: 0.104
ATTTCCTC: 0.163
CCCCTGAG: 0.0382
GATTACCA: -0.123
AACCGGCT: 0.057
CCTGATGC: 0.0775
CGGTTGCA: 0.00895
AAGGGGAA: -0.0715
AAATATGA: 0.0262
AGTAGAAA: 0.107
GGCATTGA: 0.0642
AGCGTGCC: 0.0484
ACCGGTTA: -0.0699
CTGCGGTC: 0.133
GCCTGCAA: 0.151
CGTGATAG: -0.0136
CAACCACC: -0.0611
CTATGAAA: -0.125
ATCTACAC: -0.0173
ACCTCTCA: -0.0726
ACAGATGT: -0.0758
CTAAAAAA: 0.0733

For quick reference, copied from above (series 2):
GACGGACTGGGGTATCCGGACGTGCTA: -0.746 z-score
TAAGGTATCGGGACTGGGTTAGTGCTA: 0.257 z-score
TTAGGTCTGGGGTATCGGTTAGTGCTA: 0.27 z-score
TCATATCACTATTCTAGGACTGTGCTA: 0.691 z-score
AACGGTTTCCTTTTCCTGACGTGCTAG: 7.1 z-score
TTAGGACTGCGACTGCTTTAGTGCTAG: -0.154 z-score
TCATCTCTTATTCTAACACTGTGCTAG: 0.978 z-score
TCATCTATGTAGTTGATACTGTGCTAG: 0.164 z-score
CTAGGTATCCTTATCCTTTAGTGCTAG: 0.899 z-score
TTAGATATCGGGTCTCGATTAGTGCTA: 0.864 z-score
GACGGTATCGCGTATCGGGACGTGCTA: 0.0869 z-score
TTAGCTCTCGGTTTCGGTTAGTGCTAG: 7.85 z-score
CTCCTTCTCTAACCTCTCTAAGTGCTA: 0.709 z-score
GACGGACTGGGGAATGGGGACGTGCTA: -0.418 z-score
